Assay results collected from several papers.
Compare with care: the assays were run in different laboratories. ± gives the spread as reported.

The IC50 of COc1ccc(-c2c(O)oc3c(CC=C(C)C)c(O)cc(O)c3c2=O)cc1 is reported as 15.7 ± 0.335 µg/mL (DPPH radical scavenging; 30 min).
The IC50 of O=[N+]([O-])c1ccc(Cl)c(-c2nnc(S)o2)c1 is reported as 46.6 ± 1.5 µM (H2O2 scavenging).
The IC50 of O=c1c(O)c(-c2ccc(O)cc2)oc2cc(O)cc(O)c12 is reported as 13 µM (DPPH radical scavenging; methanol; 30 min, together with: DPPH 50 µM).
C#CCNC(=O)CNC(=O)CNC(=O)[C@@H]1CCCN1C(=O)[C@H](CC(=O)O)NC(=O)CNC(=O)[C@H](CCCNC(=N)N)NC(=O)[C@H](CC(=O)O)NC(=O)CNC(=O)[C@H](CCCNC(=N)N)NC(=O)[C@H](CC(=O)O)NC(=O)CNC(=O)[C@H](CCCNC(=N)N)NC(=O)[C@H](CC(=O)O)NC(=O)CNC(=O)[C@@H](N)CCCNC(=N)N has an IC50 of > 250 µM (translation, luciferase reporter; rabbit reticulocyte lysate).
O=C(CCc1ccc(CNC(C(=O)OC2CCCC2)C2CCCCC2)cn1)NO (centres unmarked) has an IC50 of 0.174 µM (measured: TNF-alpha; human whole blood; overnight, together with: LPS 200 ng/mL).
With C#CCNC(=O)CNC(=O)CNC(=O)CNC(=O)[C@@H]1CCCN1C(=O)[C@H](CCCCN)NC(=O)[C@H](CCCCN)NC(=O)[C@H](CCCCN)NC(=O)[C@H](CCCNC(=N)N)NC(=O)[C@H](CCCCN)NC(=O)[C@@H](NC(=O)CNC(=O)CN)C(C)C the IC50 was > 250 µM (translation, luciferase reporter; Escherichia coli S30 extract).
CC[C@H](C)[C@H](NC(C)=O)C(=O)N[C@H]1CSCC[C@@H](C(=O)N(C)[C@H](C(N)=O)[C@@H](C)CC)NC(=O)[C@H](CCCNC(=N)N)NC(=O)[C@H](Cc2c[nH]cn2)NC(=O)[C@H](C)NC(=O)CN(C)C(=O)[C@H](Cc2c[nH]c3ccccc23)NC(=O)[C@H](CC(=O)O)NC(=O)[C@H](CCC(N)=O)NC(=O)[C@H](Cc2cn(C)c3ccccc23)NC(=O)[C@H](C(C)C)NC1=O has an IC50 of 0.27 ± 0.08 µM (classical complement activation, inhibitor, C3b deposition ELISA; normal human plasma; 15 min, plasma 1:80).
For CC(=O)c1cnc(N)nc1N1CC[C@H]1c1nn2ccc(Cl)c2c(=O)n1-c1ccccc1, the IC50 was 0.07 µM (Th17 differentiation, measured: IFNγ; healthy donor whole blood).
NS(=O)(=O)c1ccc(/N=N/c2ccc(O)c(/C=N/c3cc([N+](=O)[O-])ccc3O)c2)cc1 has an IC50 of 14.3 ± 0.63 µM (DPPH radical scavenging; 60 min).
With CCCCn1cc(C(=O)O)c(=O)c2cc(F)c(Nc3ccc(OC)cc3OC)c(N)c21 the IC50 was 108 ± 12.4 µg/mL (DPPH radical scavenging; 30 min).
The IC50 of CC(=O)C1=C(C)NC(=O)NC1c1ccc(C)cc1 (centres unmarked) is reported as 268 µM (nitric oxide scavenging).
For CC(C)(C)c1ccc(-c2nnc(S)o2)cc1, the IC50 was 83.2 ± 3.2 µM (superoxide scavenging, pyrogallol).
The IC50 of BP(=O)(OP(=O)([O-])OC[C@H]1O[C@@H](n2c[n+](C)c3c(=O)[nH]c(N)nc32)[C@H](O)[C@@H]1O)OP(=O)([O-])OC[C@H]1O[C@@H](n2c[n+](C)c3c(=O)[nH]c(N)nc32)[C@H](O)[C@@H]1O is reported as 2.76 µM (cap-dependent translation, inhibitor; rabbit reticulocyte lysate; pre-incubated 60 min before mRNA; relative to: m7GpppG).
For C[n+]1cn([C@@H]2O[C@H](COP(=O)(O)OP(=O)([O-])OP(=O)(O)OC[C@H]3O[C@@H](n4cnc5c(=O)[nH]c(N)nc54)[C@H](O)[C@@H]3OC(=O)NCCCCCCN)[C@@H](O)[C@H]2O)c2nc(N)nc(O)c21, the IC50 was 10.9 ± 1.4 µM (cap-dependent translation; rabbit reticulocyte lysate; 1 h preincubation, together with: capped luciferase mRNA).
For CC(=O)C1=C(C)NC(=O)NC1c1cccc(Cl)c1 (centres unmarked), the IC50 was 280 µM (ferric reducing power, FRAP).
For CONC(=O)[C@H]1[C@@H](O)[C@@]2(O)c3c(cc(OC)nc3OC)O[C@@]2(c2ccc(C#N)cc2)[C@@H]1c1ccccc1, the IC50 was 0.043 ± 0.004 µM (cap-dependent translation, FLuc reporter; Krebs-2 cell extract).
NS(=O)(=O)c1ccc(/N=N/c2ccc(O)c(C=O)c2)cc1 gave an IC50 of 17 ± 0.43 µM (DPPH radical scavenging; 60 min).
For CCCCSc1nnc(-c2ccccc2)o1, the IC50 was 164 ± 3.4 µM (superoxide scavenging, pyrogallol).
With CO[C@@H]1[C@H](O)[C@@H](COP(=O)(O)OP(=O)([S-])OP(=O)(S)OC[C@H]2O[C@@H](n3cnc4c(=O)[nH]c(N)nc43)[C@H](O)[C@@H]2O)O[C@H]1n1c[n+](C)c2c(O)nc(N)nc21 (mixture of isomers) the IC50 was 2.3 ± 0.2 µM (cap-dependent translation, inhibitor; rabbit reticulocyte lysate).
With C[n+]1cn([C@@H]2O[C@H](COP(=O)(O)OP(=O)([O-])OP(=O)(O)OC[C@H]3O[C@@H](n4cnc5c(NCCCCCCN)ncnc54)[C@H](O)[C@@H]3O)[C@@H](O)[C@H]2O)c2nc(N)nc(O)c21 the IC50 was 23.9 ± 5.5 µM (cap-dependent translation; rabbit reticulocyte lysate; 1 h preincubation, together with: capped luciferase mRNA).
With CCCCSc1nnc(-c2ccccc2Cl)o1 the IC50 was 61.9 ± 1.3 µM (H2O2 scavenging).
With CC[C@H]1OC(=O)[C@H](C)C(=O)[C@H](C)[C@@H](O[C@@H]2O[C@H](C)C[C@H](N(C)C)[C@H]2O)[C@](C)(OC)C[C@@H](C)C2=NCCN3C(=O)O[C@@]1(C)[C@H]3[C@H]2C the IC50 was 0.52 ± 0.05 µM (translation, luciferase reporter; Escherichia coli S30 extract).
The IC50 of CCCCSc1nnc(-c2ccc(C(C)(C)C)cc2)o1 is reported as 50 ± 3.1 µM (H2O2 scavenging).
For CC[C@H](C)[C@H](NC(=O)[C@@H]1CSSC[C@H](NC(=O)[C@@H](NC(C)=O)[C@@H](C)CC)C(=O)N[C@@H](C(C)C)C(=O)N[C@@H](Cc2cn(C)c3ccccc23)C(=O)N[C@@H](CCC(N)=O)C(=O)N[C@@H](CC(=O)O)C(=O)N[C@@H](Cc2c[nH]c3ccccc23)C(=O)N(C)CC(=O)N[C@@H](C)C(=O)N[C@@H](Cc2c[nH]cn2)C(=O)N[C@@H](CCCNC(=N)N)C(=O)N1)C(N)=O, the IC50 was 0.092 µM (complement activation, ELISA, measured: C3 fragment deposition; human serum; classical pathway).
The IC50 of CC(=O)C1=C(C)NC(=O)NC1c1cccc(Br)c1 (centres unmarked) is reported as 116 µM (nitric oxide scavenging).
CCCCCCCCCCCCCCCCCCCCCCCC(=O)OCC(O)CO (centres unmarked) has an IC50 of > 100 µg/mL (oxidative burst, luminol chemiluminescence; human whole blood; together with: zymosan).
CC(=O)C1=C(C)NC(=O)NC1c1ccccc1 (centres unmarked) has an IC50 of 78.8 µM (ferric reducing power, FRAP).
For CCCCn1cc(C(=O)O)c(=O)c2cc(F)c(Nc3cc(OC)c(OC)c(OC)c3)c([N+](=O)[O-])c21, the IC50 was 313 ± 13.9 µg/mL (DPPH radical scavenging; 30 min).
The IC50 of CCCCSc1nnc(-c2cc(Cl)ccc2Cl)o1 is reported as 50.3 ± 3.2 µM (H2O2 scavenging).
With CC(=O)C1=C(C)NC(=O)NC1c1ccc(Cl)cc1 (centres unmarked) the IC50 was 139 µM (nitric oxide scavenging).
The IC50 of CC(=O)[O-].[Cu+2].[O-]c1ccc(Br)cc1C=NCCN1CCOCC1 is reported as 200 µM (superoxide scavenging).
CCCCn1cc(C(=O)O)c(=O)c2cc(F)c(Nc3ccc(OC)cc3)c([N+](=O)[O-])c21 gave an IC50 of 30.7 ± 6.1 µg/mL (DPPH radical scavenging; 30 min).
CC(=O)C1=C(C)NC(=O)NC1c1ccc([N+](=O)[O-])cc1 (centres unmarked) has an IC50 of 283 µM (ferric reducing power, FRAP).
The IC50 of Sc1nnc(-c2ccccc2)o1 is reported as 165 ± 3.2 µM (superoxide scavenging, pyrogallol).
CC(=O)C1=C(C)NC(=O)NC1c1ccc(F)cc1 (centres unmarked) has an IC50 of 201 µM (ferric reducing power, FRAP).
For CCCCn1cc(C(=O)O)c(=O)c2cc(F)c(Nc3ccc(OC)cc3)c(N)c21, the IC50 was 111 ± 11.5 µg/mL (DPPH radical scavenging; 30 min).
With CCCCSc1nnc(-c2cc([N+](=O)[O-])ccc2Cl)o1 the IC50 was 44.6 ± 1.1 µM (H2O2 scavenging).
COc1cccc(C2NC(=O)NC(C)=C2C(C)=O)c1 (centres unmarked) has an IC50 of 259 µM (nitric oxide scavenging).

Some of these lines once more:
For CCCCn1cc(C(=O)O)c(=O)c2cc(F)c(Nc3cc(OC)c(OC)c(OC)c3)c([N+](=O)[O-])c21, the IC50 was 313 ± 13.9 µg/mL (DPPH radical scavenging; 30 min).
The IC50 of CCCCSc1nnc(-c2cc(Cl)ccc2Cl)o1 is reported as 50.3 ± 3.2 µM (H2O2 scavenging).
With CC(=O)C1=C(C)NC(=O)NC1c1ccc(Cl)cc1 (centres unmarked) the IC50 was 139 µM (nitric oxide scavenging).
